Measurements of several laboratories.
Lines come from different studies, so protocols differ.
Chain of UniProt P54756 (whole entry, looked up): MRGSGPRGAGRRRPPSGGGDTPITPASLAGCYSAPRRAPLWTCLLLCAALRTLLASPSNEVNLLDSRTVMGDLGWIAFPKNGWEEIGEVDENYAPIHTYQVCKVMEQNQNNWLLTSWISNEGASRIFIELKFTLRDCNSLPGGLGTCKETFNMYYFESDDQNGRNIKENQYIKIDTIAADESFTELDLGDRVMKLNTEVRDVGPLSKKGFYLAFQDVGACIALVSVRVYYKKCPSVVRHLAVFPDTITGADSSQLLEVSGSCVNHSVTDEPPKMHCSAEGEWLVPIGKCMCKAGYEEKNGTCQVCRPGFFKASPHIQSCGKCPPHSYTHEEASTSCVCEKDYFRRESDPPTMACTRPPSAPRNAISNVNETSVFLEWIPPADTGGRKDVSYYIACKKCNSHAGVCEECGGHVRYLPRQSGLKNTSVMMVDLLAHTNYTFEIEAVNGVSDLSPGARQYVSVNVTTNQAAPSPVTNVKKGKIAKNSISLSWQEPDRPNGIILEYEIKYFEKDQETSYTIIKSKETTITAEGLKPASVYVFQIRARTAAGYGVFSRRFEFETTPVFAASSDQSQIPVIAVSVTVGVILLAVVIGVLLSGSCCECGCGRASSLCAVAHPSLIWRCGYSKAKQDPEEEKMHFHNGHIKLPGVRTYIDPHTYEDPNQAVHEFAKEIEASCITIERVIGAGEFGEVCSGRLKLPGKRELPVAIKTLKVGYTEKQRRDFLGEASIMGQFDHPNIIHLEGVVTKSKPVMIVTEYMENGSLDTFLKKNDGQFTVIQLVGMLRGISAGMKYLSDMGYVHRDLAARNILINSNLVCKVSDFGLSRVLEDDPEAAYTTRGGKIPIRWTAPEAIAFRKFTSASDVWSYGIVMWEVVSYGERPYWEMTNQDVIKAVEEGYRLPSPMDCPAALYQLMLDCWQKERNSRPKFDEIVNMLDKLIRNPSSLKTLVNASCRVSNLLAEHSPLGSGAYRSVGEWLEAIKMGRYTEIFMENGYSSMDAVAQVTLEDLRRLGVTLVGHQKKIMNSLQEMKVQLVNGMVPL
Chain of UniProt O00418 (whole entry, looked up): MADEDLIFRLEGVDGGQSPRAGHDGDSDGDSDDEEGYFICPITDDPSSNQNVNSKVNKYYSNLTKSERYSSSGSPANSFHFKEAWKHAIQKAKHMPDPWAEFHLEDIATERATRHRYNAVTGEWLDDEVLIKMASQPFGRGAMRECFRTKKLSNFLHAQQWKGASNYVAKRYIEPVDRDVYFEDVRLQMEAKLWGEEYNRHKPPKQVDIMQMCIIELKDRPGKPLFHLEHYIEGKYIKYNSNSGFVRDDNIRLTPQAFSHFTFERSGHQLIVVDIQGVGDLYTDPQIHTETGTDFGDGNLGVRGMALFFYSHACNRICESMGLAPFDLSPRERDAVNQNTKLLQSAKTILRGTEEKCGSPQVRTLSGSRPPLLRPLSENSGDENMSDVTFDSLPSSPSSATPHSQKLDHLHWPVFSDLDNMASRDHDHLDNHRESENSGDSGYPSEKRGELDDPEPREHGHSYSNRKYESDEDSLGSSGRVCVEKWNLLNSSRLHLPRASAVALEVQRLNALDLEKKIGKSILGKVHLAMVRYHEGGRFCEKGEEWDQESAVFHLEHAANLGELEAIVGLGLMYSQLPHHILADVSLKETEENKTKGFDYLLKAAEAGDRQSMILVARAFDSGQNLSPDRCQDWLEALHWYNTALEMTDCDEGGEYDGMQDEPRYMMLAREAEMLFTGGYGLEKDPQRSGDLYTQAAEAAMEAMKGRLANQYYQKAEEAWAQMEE
Chain of UniProt Q9H1R3 (whole entry, looked up): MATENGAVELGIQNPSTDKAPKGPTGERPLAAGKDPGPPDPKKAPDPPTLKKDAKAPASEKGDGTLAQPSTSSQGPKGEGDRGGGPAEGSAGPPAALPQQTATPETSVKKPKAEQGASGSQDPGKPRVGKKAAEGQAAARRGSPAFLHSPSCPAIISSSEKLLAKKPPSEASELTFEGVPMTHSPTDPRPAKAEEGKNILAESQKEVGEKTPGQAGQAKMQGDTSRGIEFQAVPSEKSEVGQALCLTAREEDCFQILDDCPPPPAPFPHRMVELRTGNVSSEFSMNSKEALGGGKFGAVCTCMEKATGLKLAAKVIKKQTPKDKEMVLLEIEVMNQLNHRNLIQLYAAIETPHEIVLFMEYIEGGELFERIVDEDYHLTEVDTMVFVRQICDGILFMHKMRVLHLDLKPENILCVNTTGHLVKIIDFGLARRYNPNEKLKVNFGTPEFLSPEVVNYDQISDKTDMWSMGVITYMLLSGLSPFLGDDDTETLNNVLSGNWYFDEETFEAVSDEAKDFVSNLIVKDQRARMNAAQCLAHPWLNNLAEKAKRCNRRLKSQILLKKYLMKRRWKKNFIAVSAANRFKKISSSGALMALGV
Chain of UniProt Q9BUB5 (whole entry, looked up): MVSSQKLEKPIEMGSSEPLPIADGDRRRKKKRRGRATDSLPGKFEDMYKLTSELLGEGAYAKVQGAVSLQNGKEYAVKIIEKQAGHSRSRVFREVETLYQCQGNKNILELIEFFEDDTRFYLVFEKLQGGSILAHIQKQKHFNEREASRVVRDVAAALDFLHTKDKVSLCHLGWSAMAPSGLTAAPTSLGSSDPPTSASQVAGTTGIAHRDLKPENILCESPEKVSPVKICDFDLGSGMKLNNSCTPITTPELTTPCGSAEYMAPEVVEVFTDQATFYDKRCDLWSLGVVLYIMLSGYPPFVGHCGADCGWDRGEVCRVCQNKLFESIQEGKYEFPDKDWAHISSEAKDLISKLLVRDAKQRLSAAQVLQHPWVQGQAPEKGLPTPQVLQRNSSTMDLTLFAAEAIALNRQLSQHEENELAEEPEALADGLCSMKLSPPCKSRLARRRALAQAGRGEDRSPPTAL
Chain of UniProt P62344 (whole entry, looked up): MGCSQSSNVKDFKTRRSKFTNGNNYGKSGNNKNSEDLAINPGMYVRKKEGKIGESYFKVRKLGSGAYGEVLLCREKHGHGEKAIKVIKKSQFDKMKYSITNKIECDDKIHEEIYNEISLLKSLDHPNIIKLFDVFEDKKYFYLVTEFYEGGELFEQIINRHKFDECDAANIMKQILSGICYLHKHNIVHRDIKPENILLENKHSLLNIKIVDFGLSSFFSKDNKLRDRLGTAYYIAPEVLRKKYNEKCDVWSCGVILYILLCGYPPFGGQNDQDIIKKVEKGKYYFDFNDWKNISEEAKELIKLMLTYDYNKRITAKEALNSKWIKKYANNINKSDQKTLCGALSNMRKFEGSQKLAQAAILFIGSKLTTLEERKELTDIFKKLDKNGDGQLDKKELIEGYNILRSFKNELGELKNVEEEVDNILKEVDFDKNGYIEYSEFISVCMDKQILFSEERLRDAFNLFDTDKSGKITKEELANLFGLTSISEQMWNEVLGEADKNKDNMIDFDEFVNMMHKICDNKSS
Chain of UniProt P20309 (whole entry, looked up): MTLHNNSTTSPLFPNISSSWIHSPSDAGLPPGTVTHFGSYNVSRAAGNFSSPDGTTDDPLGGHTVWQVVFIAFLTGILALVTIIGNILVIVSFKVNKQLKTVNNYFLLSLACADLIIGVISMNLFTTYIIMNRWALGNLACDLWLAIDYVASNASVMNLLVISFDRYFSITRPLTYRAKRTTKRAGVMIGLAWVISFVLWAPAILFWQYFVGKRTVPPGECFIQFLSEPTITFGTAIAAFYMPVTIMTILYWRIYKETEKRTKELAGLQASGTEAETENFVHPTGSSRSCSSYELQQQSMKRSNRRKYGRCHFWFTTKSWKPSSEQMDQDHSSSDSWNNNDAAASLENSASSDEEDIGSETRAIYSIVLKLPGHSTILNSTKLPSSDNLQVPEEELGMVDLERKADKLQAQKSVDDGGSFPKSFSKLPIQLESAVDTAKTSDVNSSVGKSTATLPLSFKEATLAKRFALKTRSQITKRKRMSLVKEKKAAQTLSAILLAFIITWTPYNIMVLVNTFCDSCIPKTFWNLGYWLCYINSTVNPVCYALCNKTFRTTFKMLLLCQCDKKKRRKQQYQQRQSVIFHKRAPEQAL
Chain of UniProt P42681 (whole entry, looked up): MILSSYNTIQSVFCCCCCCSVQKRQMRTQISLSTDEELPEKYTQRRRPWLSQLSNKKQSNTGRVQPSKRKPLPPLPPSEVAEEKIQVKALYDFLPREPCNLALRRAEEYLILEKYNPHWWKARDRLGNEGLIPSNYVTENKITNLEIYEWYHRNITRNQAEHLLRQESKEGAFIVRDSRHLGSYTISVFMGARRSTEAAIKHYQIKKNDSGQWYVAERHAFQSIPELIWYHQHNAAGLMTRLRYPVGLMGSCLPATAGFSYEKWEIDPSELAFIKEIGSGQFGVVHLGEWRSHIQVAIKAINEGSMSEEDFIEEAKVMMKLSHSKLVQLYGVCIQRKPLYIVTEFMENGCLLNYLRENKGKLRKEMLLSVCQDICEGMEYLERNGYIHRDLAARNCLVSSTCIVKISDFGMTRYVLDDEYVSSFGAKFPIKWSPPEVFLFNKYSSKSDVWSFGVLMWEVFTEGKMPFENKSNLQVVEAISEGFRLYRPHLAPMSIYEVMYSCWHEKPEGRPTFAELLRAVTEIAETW
Chain of UniProt P49286 (whole entry, looked up): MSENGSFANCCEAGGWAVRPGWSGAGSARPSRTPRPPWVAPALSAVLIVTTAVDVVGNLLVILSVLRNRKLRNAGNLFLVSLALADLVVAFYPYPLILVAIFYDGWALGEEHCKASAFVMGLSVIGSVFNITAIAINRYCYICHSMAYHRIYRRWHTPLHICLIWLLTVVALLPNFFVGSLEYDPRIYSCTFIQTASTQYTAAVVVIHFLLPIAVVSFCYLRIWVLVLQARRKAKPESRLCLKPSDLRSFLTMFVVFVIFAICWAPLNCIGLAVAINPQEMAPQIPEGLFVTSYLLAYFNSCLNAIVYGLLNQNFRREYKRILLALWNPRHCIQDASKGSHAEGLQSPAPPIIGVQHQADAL

Structure (SMILES) | target | test | setting | quantity | result
COc1cc2c(CCNC(C)=O)c(I)[nH]c2cc1[N+](=O)[O-] | MTNR1B (Homo sapiens, UniProt P49286) | GTPγS binding, agonist, radiometric | cell membranes | Emax | 103%
Nc1ncnc2occ(-c3ccc(NC(=O)Nc4cc(C(F)(F)F)ccc4F)cc3)c12 | FLT3 (Homo sapiens, UniProt P36888, K663Q) | cell-free assay, inhibitor | 20 µM | remaining signal | 6.3%
C1=C/COCc2cc(ccc2OCCN2CCCC2)Nc2nccc(n2)-c2cccc(c2)COC/1 | EPHA5 (Homo sapiens, UniProt P54756) | binding | 0.1 µM | remaining binding | 100%
COc1cc(-c2cncc3c2CN(C)Cc2cc(N4CCNCC4)ccc2-3)cc(OC)c1OC | TXK (Homo sapiens, UniProt P42681) | enzyme activity, inhibitor | 1 µM | remaining activity | 107%
CCCCC(=O)Nc1ccc(-c2ccc3ncn(CCC)c(=O)c3c2)cn1 | MAP3K6 (Homo sapiens, UniProt O95382) | binding, competition with immobilised ligand | 0.5 µM | remaining binding | 100%
CN1CC(Oc2cnc(C#N)cc2-c2ccn3nc(NC(=O)C4CC4)cc3c2)C1 | MYLK2 (Homo sapiens, UniProt Q9H1R3) | enzyme activity, inhibitor | 1 µM | inhibition | 0%
F[C@@H]1CCN(c2nccc(-c3cnn4ncccc34)n2)C1 | CDPK1 (Plasmodium falciparum, UniProt P62344) | binding | 1 µM | remaining binding | 100%
NC/C(=C\F)COc1cccc(Cn2c(=S)[nH]c(=O)c3[nH]cnc32)c1 | CHRM3 (Homo sapiens, UniProt P20309) | ligand displacement, radioligand | 10 µM | inhibition | < 50%
CNc1ncc2c(/C=C/C(=O)N3CCC(OC)CC3)nn(Cc3cccc(C(F)(F)F)c3)c2n1 | EEF2K (Homo sapiens, UniProt O00418) | enzyme activity, inhibitor, radiometric | 1 µM | remaining activity | 94%
Cc1cc([C@@H](C)Nc2ccccc2C(=O)O)c2nc(N3CCC(F)(F)CC3)c(C#N)c(=O)n2c1 | MKNK1 (Homo sapiens, UniProt Q9BUB5) | binding, competition with immobilised ligand | 10 µM | remaining binding | 74%
C=CC(=O)N1CCC(COCC(=O)N2CCN(c3nc(-c4cnc(N)nc4C(F)F)nc(N4CCOC[C@@H]4C)n3)CC2)CC1 | DYRK1A (Homo sapiens, UniProt Q13627) | binding, competition with immobilised ligand | 1 µM | remaining binding | 85%

Repeated from above:
Structure (SMILES) | target | test | setting | quantity | result
COc1cc2c(CCNC(C)=O)c(I)[nH]c2cc1[N+](=O)[O-] | MTNR1B (Homo sapiens, UniProt P49286) | GTPγS binding, agonist, radiometric | cell membranes | Emax | 103%
C1=C/COCc2cc(ccc2OCCN2CCCC2)Nc2nccc(n2)-c2cccc(c2)COC/1 | EPHA5 (Homo sapiens, UniProt P54756) | binding | 0.1 µM | remaining binding | 100%
